Published values of several laboratories.
Every numbered part comes from another study and shows a few of its results, in no order. Positions count from the first letter of the parent shown.

Series 1 — target: CREB3L3, bZIP domain (human); technique: DHFR protein complementation; medium: yeast; relative to: wild-type JUN-FOS pair; direction: higher = stronger binding
Notes: single substitutions, most at no-binding floor
Parent: JUN, bZIP domain (human); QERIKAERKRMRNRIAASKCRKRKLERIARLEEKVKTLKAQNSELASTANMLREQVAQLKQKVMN; partner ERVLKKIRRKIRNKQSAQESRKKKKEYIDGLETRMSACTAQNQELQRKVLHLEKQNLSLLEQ
| Variant | binding fitness [natural log] |
| --- | --- |
| E44S | -1.51 |
| E33A | -1.52 |
| E33P | -1.54 |
| V35H | -1.46 |
| Q41F | -1.48 |
| S47I | -1.5 |
| A29Q | -1.6 |
| T48D | -1.49 |
| E32W | -1.44 |
| L45P | -1.43 |
| L31N | -1.15 |
| A49M | -1.33 |
| E54N | -1.42 |
| M51G | -1.53 |

Series 2 — technique: RNA Bind-n-Seq; form: RNA; medium: in vitro; tested at: 200 nM; notes: whole 134-nt RNA, ends assumed; with: 150 mM LiCl; relative to: input library; direction: higher = stronger binding; library: 7-deaza-guanosine replaces G
Target: Fragile X messenger ribonucleoprotein 1, C-terminal low-complexity region (Fmr1, Mus musculus, UniProt P35922)
Shared flanks, not repeated: GGGAGUUCUACAGUCCGACGAUC … UGGAAUUCUCGGGUGUCAAGG
| Oligonucleotide | log2 enrichment |
| --- | --- |
| GUCCUGUGCUACACAUCGUAUGUACCGAAUCGGGGAAAGGGGAGGGGAAAAAAAGGGGAAAGUAUUAUGUUACGCCGUUCGGAUCUGCAC | 1.4 |
| GUCCUGUGCUACACAUCGUAUGUACCGAAUCGGGGUUUUUUUGGGGUGGGGAAAGGGGAAAGUAUUAUGUUACGCCGUUCGGAUCUGCAC | 0.362 |
| AGUCCUGUGCUACACAUCGUAUGUACCGAAUCGGAAAAAAAGGUUUGGUUUUUUUGGAAAGUAUUAUGUUACGCCGUUCGGAUCUGCACU | -3.42 |
| UCAAGUCCUGUGCUACACAUCGUAUGUACCGAAUCGGAAAAAGGUUUUUGGAGGAAAGUAUUAUGUUACGCCGUUCGGAUCUGCACUUCC | -0.787 |
| UCCUCAAGUCCUGUGCUACACAUCGUAUGUACCGAAUCGGUGGUGGGGUGGGAAAGUAUUAUGUUACGCCGUUCGGAUCUGCACUUCCAG | 1.03 |
| CACAGACAACACGCACCCACACAGACACAGAGGGAAGGGGUUGGUAUGGGGACAGGGUGCACAGCAGGGCGGGGUAGGACCCCAGCCCCU | -1.34 |
| UAACUUUAGAGGAGGAUCUGAUGGAUAUGGCAGUGGACGUGGAUUUGGGGAUGGCUAUAAUGGGGAUGGAGGAGGACCUGGAGGUGGCAA | 0.713 |
| GUCCUGUGCUACACAUCGUAUGUACCGAAUCAAAUUUUUUUAAACCCCCAAAUUUAAAAAAGUAUUAUGUUACGCCGUUCGGAUCUGCAC | -1.65 |
| CAAGUCCUGUGCUACACAUCGUAUGUACCGAAUCGGGGUUUGGUUUGGGGUUUGGGAAAGUAUUAUGUUACGCCGUUCGGAUCUGCACUU | -2.16 |
| CAAGUCCUGUGCUACACAUCGUAUGUACCGAAUCGGGAAAAAGGGAAAGGGUGGGAAAGUAUUAUGUUACGCCGUUCGGAUCUGCACUUC | -0.744 |
| UCCACCCCUUCUUCCUCCCUUUAACUUAUCCAUUCACUUAAAACAUUACCUGGUCAUCUGGUAAGCCCGGGACAGUAAGCCGAGUGGCUG | 1.21 |

Series 3 — technique: RNA Bind-n-Seq; form: RNA; medium: in vitro; tested at: 20 nM; notes: 6-mer, flanks averaged, single round; with: 150 mM LiCl; relative to: input library; direction: higher = stronger binding
Target: TAR DNA-binding protein 43, full length, His tag (TARDBP, Homo sapiens, UniProt Q13148, residues 1-414)
| Oligonucleotide | 6-mer enrichment (R) |
| --- | --- |
| AAUUCG | 0.879 |
| AUAGCU | 0.848 |
| ACGCAA | 0.85 |
| CUCUCG | 0.832 |
| UUGCAA | 0.919 |
| GCCAAA | 0.869 |
| CAAAGC | 0.795 |
| ACGAGU | 0.928 |
| GAUUGU | 1.04 |
| GAACUU | 0.921 |
| ACGCAU | 0.869 |
| UAAUCC | 0.873 |
| CAGGAC | 0.92 |
| GCUGAG | 1 |
| CGUACA | 0.829 |
| ACCGAG | 0.902 |
| GUUGCC | 1.08 |
| CGCGAU | 0.858 |
| UCAAUC | 0.828 |
| AGGAGG | 1.16 |
| UCGAUG | 0.901 |
| AAGCUC | 0.823 |

Series 4 — technique: RNAcompete; form: RNA; medium: in vitro; tested at: 20 nM; notes: 7-mer, probes averaged, single round; relative to: mean of 7-mers; direction: higher = stronger binding
Target: PABPC1L2, full length, GST fusion (mouse, UniProt A0ABA7IW68)
Residues (chain): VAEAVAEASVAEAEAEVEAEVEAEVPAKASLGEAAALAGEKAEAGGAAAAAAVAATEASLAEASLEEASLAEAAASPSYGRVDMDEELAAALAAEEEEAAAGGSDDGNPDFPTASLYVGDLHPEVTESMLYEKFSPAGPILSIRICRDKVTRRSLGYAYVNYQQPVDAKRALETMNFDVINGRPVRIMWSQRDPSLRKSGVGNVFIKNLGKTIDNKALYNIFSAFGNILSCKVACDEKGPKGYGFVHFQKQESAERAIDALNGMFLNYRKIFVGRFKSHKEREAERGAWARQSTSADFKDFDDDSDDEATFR
| Oligonucleotide | 7-mer Z-score |
| --- | --- |
| GAUUCCC | -0.389 |
| AUUUAUC | 0.166 |
| UAGUUGA | -0.309 |
| UUCAGCU | -0.277 |
| GCCAAUU | -0.329 |
| UAACGAC | 0.0533 |
| AGCCCGU | -0.364 |
| GAGCAAU | 0.108 |
| CGUAAGC | -0.393 |
| AAAUCCG | 0.421 |
| CGUCUGA | -0.369 |
| CGACGAA | 0.095 |
| CUAGUCU | -0.325 |
| GUAUUGG | 0.00979 |
| AACGGUC | 0.017 |
| UCACACG | -0.168 |
| GCUCCGG | -0.222 |
| CAGGCCU | -0.0989 |
| UGUCGUA | -0.313 |
| CAACGAC | 0.037 |
| UGAUAGU | -0.15 |
| UCUAUCU | -0.391 |
| GCAAGAG | 0.186 |
| UGGAUAA | 0.358 |
| GGAAAUC | 0.115 |

Series 5 — technique: protein-binding microarray; form: double-stranded DNA, one strand shown; medium: in vitro; tested at: 2200 nM top; notes: 60-bp whole probe; with: salmon DNA 0.4 mg/ml; relative to: random background probes; direction: higher = stronger binding; shared flanks, not repeated: GCCTAGCAC … GTCTTGATTCGCTTGACGCTGCTG
Target: Interferon regulatory factor 7, full length, phosphomimetic (IRF7, Homo sapiens, UniProt Q92985, residues 1-503, S471D/S472D/S475D/S476D/S477D/S483D/S484D/S487D)
Construct (chain): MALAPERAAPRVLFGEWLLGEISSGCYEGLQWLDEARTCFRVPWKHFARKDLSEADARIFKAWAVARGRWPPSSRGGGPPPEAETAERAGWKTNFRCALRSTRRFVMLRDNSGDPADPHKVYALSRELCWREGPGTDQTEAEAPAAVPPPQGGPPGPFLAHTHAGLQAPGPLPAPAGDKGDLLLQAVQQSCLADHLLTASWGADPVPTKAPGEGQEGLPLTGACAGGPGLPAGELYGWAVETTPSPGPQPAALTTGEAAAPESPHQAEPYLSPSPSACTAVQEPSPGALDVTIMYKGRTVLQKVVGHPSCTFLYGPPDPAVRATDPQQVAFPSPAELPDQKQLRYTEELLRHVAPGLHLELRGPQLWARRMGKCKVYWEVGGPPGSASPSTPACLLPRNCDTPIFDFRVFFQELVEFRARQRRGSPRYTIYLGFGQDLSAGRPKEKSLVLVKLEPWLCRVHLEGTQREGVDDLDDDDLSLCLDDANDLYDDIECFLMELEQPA
| Oligonucleotide | fitted relative affinity |
| --- | --- |
| GAGCAGAGGCTGATGTATGTGTGCTAG | -0.54 z-score |
| TCAATTCTCTGCTTCTGACTGTGCTAG | 1.47 z-score |
| GACGATCTCAGTATCGATACGTGCTAG | 0.357 z-score |
| TCAGTTCACTATTTAAGACTGTGCTAG | 1.42 z-score |
| TTAGGTATCGGAATGGGTTAGTGCTAG | 0.359 z-score |
| CTCTTGTTCTCTCTGGCCCTGTGCTAG | 1.61 z-score |
| TTAGTTATCAGACTGGATTAGTGCTAG | 0.279 z-score |
| TTGGAACTGAGACTGGATTAGTGCTAG | -0.468 z-score |
| TTTGATATCGGGACTGGATTAGTGCTA | 0.0423 z-score |
| TTAGGTCTCCTTATCCTATAGTGCTAG | 0.922 z-score |
| TCATTTATCCCTGACAGACTGTGCTAG | 1.48 z-score |
| TTAGGTTGCCTTTCCCTTTAGTGCTAG | 1.92 z-score |
| TCAACCATCCTATGTAGAACTGTGCTA | 1.13 z-score |
| TTAGGTATCCTTATCCATTAGTGCTAG | 0.731 z-score |
| CTAGGTTTCGACTATCGGTTAGTGCTA | 3.84 z-score |
| TTAGATATCGGGTATCAATTAGTGCTA | 0.142 z-score |
| GGCACCCAAGCTCTTGTTTGGTGCTAG | -0.443 z-score |
| TCAACCATCCCTTATAAAACTGTGCTA | 0.618 z-score |
| TCACCCCTCAGATCTGCCACTGTGCTA | 0.657 z-score |
| GACTGTTTCCTACTGCTGACGTGCTAG | 2.15 z-score |
| TTAGAACTGAGTATCGAGTAGTGCTAG | -0.496 z-score |
| GACGGACTGGGTTGCGGGACGTGCTAG | -0.632 z-score |
| GACGGTTTCGGGGTTCGGGACGTGCTA | 3.59 z-score |

Series 6 — technique: universal PBM; form: double-stranded DNA, one strand shown; medium: in vitro; tested at: 600 nM; direction: higher = stronger binding
Target: Sal-like protein 4, full length isoform A (SALL4, Homo sapiens, UniProt Q9UJQ4, residues 1-1053)
UniProt Q9UJQ4, sequence (whole entry, looked up): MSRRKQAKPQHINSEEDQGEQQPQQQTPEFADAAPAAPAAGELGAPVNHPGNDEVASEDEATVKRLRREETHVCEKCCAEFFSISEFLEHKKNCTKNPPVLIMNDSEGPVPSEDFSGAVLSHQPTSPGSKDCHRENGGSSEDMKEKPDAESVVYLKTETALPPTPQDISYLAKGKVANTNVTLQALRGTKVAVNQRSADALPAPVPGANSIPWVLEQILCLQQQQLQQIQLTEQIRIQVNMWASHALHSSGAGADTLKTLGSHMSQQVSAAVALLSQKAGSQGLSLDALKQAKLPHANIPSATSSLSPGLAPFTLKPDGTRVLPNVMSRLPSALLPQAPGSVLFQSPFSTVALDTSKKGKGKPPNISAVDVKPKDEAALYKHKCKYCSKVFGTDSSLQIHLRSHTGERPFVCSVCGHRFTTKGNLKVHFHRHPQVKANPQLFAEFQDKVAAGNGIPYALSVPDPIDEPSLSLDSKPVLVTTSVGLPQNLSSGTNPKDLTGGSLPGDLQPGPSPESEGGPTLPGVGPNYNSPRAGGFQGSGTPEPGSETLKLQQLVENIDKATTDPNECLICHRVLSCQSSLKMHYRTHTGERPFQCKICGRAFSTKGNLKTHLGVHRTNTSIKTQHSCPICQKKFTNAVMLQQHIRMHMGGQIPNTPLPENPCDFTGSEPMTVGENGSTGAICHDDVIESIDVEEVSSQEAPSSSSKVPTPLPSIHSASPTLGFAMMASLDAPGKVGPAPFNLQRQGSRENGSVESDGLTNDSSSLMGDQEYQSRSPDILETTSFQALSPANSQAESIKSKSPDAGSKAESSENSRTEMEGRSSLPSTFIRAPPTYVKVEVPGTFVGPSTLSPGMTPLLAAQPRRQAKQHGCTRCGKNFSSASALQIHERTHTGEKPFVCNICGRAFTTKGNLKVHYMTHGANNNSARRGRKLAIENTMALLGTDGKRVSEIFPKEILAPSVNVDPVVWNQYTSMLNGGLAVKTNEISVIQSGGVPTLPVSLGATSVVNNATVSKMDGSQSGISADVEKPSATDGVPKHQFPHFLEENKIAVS
Notes: 8-mer, flanks averaged, mean of replicates
| Oligonucleotide | E-score |
| --- | --- |
| CATGTACC | -0.197 |
| CGAAACAA | 0.121 |
| TAAAACCA | 0.219 |
| GTTATTCA | 0.329 |
| CAGTTTGC | -0.0409 |
| ACAGTAGT | 0.077 |
| GTATCGAA | 0.123 |
| GATTCGAC | -0.0938 |
| ACTCACTA | 0.0888 |
| CGTCGACG | -0.357 |
| CGACCCAA | -0.0539 |
| AATGAGAA | 0.15 |
| TAGTGAGA | 0.0286 |
| CTTAACAA | 0.237 |
| GTAATACA | 0.286 |
| CATTTACG | 0.0654 |
| CAGCGCAG | -0.181 |
| ACCCGATA | -0.0447 |
| CCGTGACC | -0.355 |
| ATTCCGCC | -0.0897 |
| AAGTATCC | -0.00365 |
| ACCTGATG | -0.144 |
| TCGAAACA | 0.162 |
| ACATAGAA | 0.179 |
| ACCTCTCA | -0.182 |

Single results of other studies
| Sequence | target | assay | test system | scale | endpoint | value |
| --- | --- | --- | --- | --- | --- | --- |
| PPVKRRLDLETDH | human cyclin D3 | cyclin docking binding, deep mutational scanning | peptide, yeast cyclin D3-Cln2 system | direction not given | Cln2-subtracted enrichment score | 0.000921 |

Some of these lines once more (series 6):
| Oligonucleotide | E-score |
| --- | --- |
| GTAATACA | 0.286 |
| CAGCGCAG | -0.181 |
| CAGTTTGC | -0.0409 |
| TCGAAACA | 0.162 |
| ACCTCTCA | -0.182 |
| GATTCGAC | -0.0938 |
| AAGTATCC | -0.00365 |
| ACAGTAGT | 0.077 |
| CATTTACG | 0.0654 |
